Experimental data from different studies.
Parts stem from different laboratories: compare values within a part only.

Study 1
Target: Eukaryotic initiation factor 4A-I (EIF4A1, Homo sapiens, UniProt P60842, residues 1-406, full length assumed)
Sequence of UniProt P60842 (whole entry, looked up): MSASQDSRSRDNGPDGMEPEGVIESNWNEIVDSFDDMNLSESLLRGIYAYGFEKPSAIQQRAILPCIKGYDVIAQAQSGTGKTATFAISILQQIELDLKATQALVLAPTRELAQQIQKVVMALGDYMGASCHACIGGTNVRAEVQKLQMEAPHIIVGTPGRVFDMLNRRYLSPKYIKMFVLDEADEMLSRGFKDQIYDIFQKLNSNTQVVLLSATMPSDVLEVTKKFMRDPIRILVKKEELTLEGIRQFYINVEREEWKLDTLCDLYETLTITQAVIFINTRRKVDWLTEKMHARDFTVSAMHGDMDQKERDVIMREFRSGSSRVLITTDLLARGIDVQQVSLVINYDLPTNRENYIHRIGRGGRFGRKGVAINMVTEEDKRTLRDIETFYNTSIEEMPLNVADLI
Method: RNA Bind-n-Seq
Molecule type: RNA
Medium: in vitro
Tested at: 15 pmol
Notes: 4-mer, random 30-nt RNA, single round
Added: 3 µM RocA, 2 mM AMP-PNP
Reference: mean of 4-mers
Reading: higher = stronger binding
Measurement: 4-mer enrichment Z-score
CGUC: -1.06
CUAU: -0.637
GAGU: 1.92
UUGG: 0.998
CAGA: -0.116
GUCA: -1.07
AAUC: -0.675
GUAG: 0.857

Study 2
Target: HLA class I histocompatibility antigen, A alpha chain, allele A*80:01 (Homo sapiens, UniProt P04439)
Observed: peptide-MHC binding
Molecule type: peptide
Tested at: concentration not given
Measurement: binding
QTEPKTSVV: inactive
IEDDEIIWV: inactive
FIVEHINAM: inactive
LSDAIFDDL: inactive

Study 3
Target: UBE2W UBC core domain (UniProt Q96B02)
Method: yeast two-hybrid
Medium: yeast
Notes: mostly zero background
Reference: not given
Reading: higher = stronger interaction
Measurement: lacZ reporter activity
B1: DTX4 RING domain (UniProt Q9Y2E6); chain QKVRHPPDEDCTICMERLTAPSGYKGPQPTVKPDLVGKLSRCGHVYHIYCLVAMYNNGNKDGSLQCPTCKTIYGVKTGTQ
B2: TRIML1 RING domain (UniProt Q8N9V2); chain LMENLREELTCFICLDYFSSPVTTECGHSFCLVCLLRSWEEHNTPLSCPECWRTLEGPHFQS
B3: VPS41 RING domain (UniProt P49754); chain KGVLVDEENICESCLSPILPSDAAKPFSVVVFHCRHMFHKECLPMPSMNSAAQFCNICSAKNRGPGSAI
B4: MKRN1 RING domain (UniProt Q9UHC7); chain FAVQRSKDMVCGICMEVVYEKANPSERRFGILSNCNHTYCLKCIRKWRSAKQFESKIIKSCPECRITSNFVIPSE
B5: TRIM13 RING domain (UniProt O60858); chain MELLEEDLTCPICCSLFDDPRVLPCSHNFCKKCLEGILEGSVRNSLWRPAPFKCPTCRKETSATGINS
B6: TRIM43 RING domain (UniProt Q96BQ3); chain FSHAFQKELTCVICLNYLVDPVTICCGHSFCRPCLCLSWEEAQSPANCPACREPSPKMDFKT
B7: RNF38 RING domain (UniProt Q9H0F5); chain PNNHQSEQTLCVVCMCDFESRQLLRVLPCNHEFHAKCVDKWLKANRTCPICRADASEVHRDS
B8: TRIM40 RING domain (UniProt Q6P9F5); chain LQKDNQEEGVCPICQESLKEAVSTNCGHLFCRVCLTQHVEKASASGVFCCPLCRKPCSEEVLG
B9: TRAF5 RING domain (UniProt O00463); chain FVERLEERYKCAFCHSVLHNPHQTGCGHRFCQHCILSLRELNTVPICPVDKEVIKSQEVFK
B10: RC3H1 RING domain (UniProt Q5TC82); chain QAPQWTDFLSCPICTQTFDETIRKPISLGCGHTVCKMCLNKLHRKACPFDQTTINTDIELL
B11: NEURL1 RING domain (UniProt O76050); chain VTPGLGQWSDECTICYEHAVDTVIYTCGHMCLCYACGLRLKKALHACCPICRRPIKDIIKT
Construct (chain): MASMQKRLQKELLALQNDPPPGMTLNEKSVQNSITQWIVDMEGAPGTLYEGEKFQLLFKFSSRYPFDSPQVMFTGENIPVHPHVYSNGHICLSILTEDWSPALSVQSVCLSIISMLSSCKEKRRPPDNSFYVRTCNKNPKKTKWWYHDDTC
QVDKAVFHMQSVKCLKCQEQKRAVLPCQHAALCELCAEGSECPICQPGRAHTLQS (UNK RING domain (UniProt Q9C0B0)): 0
B1 (DTX4 RING domain): 0
B2 (TRIML1 RING domain): 0
GAAPGPEAAECLVCSELALLVLFSPCQHRTVCEECARRMKKCIRCQVVVSKKLRPD (MIB2 RING domain (UniProt Q96AX9)): 0
FQGDVDEDLICPICSGVLEEPVQAPHCEHAFCNACITQWFSQQQTCPVDRSVVTVAHLRP (RNF41 RING domain (UniProt Q9H4P4)): 0
B3 (VPS41 RING domain): 0
DHGAVGQEMCCPICCSEYVKGEVATELPCHHYFHKPCVSIWLQKSGTCPVCRCMFPPPL (PJA1 RING domain (UniProt Q8NG27)): 0
B4 (MKRN1 RING domain): 0
B5 (TRIM13 RING domain): 0
B6 (TRIM43 RING domain): 0
B7 (RNF38 RING domain): 0
B8 (TRIM40 RING domain): 0
B9 (TRAF5 RING domain): 0
B10 (RC3H1 RING domain): 0
B11 (NEURL1 RING domain): 3880

Study 4
Target: Leukocyte tyrosine kinase receptor (LTK, Homo sapiens, UniProt P29376)
Sequence of UniProt P29376 (whole entry, looked up): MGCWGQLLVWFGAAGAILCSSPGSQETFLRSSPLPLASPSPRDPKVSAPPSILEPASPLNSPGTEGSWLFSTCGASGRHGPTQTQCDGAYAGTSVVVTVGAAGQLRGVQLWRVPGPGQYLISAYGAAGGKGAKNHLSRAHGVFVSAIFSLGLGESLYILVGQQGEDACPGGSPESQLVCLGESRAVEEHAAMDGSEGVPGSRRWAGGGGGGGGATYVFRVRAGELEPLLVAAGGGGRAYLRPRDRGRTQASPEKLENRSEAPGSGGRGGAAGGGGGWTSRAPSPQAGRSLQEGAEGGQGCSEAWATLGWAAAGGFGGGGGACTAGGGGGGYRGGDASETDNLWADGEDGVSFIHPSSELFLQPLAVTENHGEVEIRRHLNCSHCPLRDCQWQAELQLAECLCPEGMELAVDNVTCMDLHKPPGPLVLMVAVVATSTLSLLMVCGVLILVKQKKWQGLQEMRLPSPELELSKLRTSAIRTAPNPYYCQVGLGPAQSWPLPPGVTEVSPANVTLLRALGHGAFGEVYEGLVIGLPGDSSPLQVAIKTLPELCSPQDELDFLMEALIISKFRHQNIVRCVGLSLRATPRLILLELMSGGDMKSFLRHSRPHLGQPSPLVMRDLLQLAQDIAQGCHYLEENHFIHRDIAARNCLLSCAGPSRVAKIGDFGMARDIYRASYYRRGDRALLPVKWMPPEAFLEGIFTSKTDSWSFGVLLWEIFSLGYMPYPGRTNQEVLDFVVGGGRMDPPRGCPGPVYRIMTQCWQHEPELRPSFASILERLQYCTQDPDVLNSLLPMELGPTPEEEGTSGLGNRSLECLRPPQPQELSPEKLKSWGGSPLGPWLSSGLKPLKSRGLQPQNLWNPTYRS
Observed: enzyme activity
Mode: inhibitor
Method: radiometric
Tested at: 0.5 µM
Measurement: remaining activity
CC(C)N(CCC(=O)c1ccc2ccccc2c1)Cc1ccccc1: 103%
Nc1nc(Nc2ccc(S(N)(=O)=O)cc2)nn1C(=S)Nc1c(F)cccc1F: 27.6%
O=Nc1c(-c2c(O)[nH]c3ccccc23)[nH]c2ccccc12: 62.3%
CCN(CC)CCCCN1c2ccccc2Oc2ccc(Cl)cc21: 98.4%
CNc1cc2c(Nc3cccc(Br)c3)ncnc2cn1: 76.2%
N#CC(c1ccnc(NCCc2cccnc2)n1)c1nc2ccccc2s1 (stereo not drawn): 83.1%

For quick reference, copied from above (study 1):
GUCA: -1.07
AAUC: -0.675
GUAG: 0.857
